Experimental data of several laboratories.
Protocols differ between the studies behind these lines. Values joined by “and” are separate records of one study, mostly repeats; a detail may differ. ± gives the spread as reported.
Sodium- and chloride-dependent glycine transporter 2: Sodium- and chloride-dependent glycine transporter 2 (Homo sapiens, UniProt Q9Y345)
Chain of UniProt Q9Y345 (whole entry, looked up): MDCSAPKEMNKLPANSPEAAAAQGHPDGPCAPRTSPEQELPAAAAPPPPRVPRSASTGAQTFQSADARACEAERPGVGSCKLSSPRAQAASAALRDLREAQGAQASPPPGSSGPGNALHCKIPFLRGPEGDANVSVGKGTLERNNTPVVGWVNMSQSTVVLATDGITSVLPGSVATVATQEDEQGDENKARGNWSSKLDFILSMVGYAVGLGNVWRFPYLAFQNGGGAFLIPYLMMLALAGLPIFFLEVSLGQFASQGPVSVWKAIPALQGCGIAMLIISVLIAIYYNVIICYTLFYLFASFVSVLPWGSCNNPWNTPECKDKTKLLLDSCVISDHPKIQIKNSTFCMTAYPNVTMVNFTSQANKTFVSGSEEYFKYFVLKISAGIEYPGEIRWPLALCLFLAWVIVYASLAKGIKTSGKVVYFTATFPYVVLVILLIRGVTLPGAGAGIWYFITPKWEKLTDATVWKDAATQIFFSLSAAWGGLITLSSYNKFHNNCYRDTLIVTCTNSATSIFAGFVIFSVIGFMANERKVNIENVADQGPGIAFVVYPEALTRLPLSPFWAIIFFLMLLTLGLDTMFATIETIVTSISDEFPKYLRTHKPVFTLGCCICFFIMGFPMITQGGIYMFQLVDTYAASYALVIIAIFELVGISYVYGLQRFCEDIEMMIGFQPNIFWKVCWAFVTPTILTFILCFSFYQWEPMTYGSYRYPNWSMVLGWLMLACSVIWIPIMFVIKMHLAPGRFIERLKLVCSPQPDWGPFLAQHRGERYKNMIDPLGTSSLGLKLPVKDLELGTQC
Gria1/Gria2: Glutamate receptor AMPA 1/2 (Gria1/Gria2, Rattus norvegicus, UniProt P19490+P19491)
Chain of UniProt P19491 (whole entry, looked up): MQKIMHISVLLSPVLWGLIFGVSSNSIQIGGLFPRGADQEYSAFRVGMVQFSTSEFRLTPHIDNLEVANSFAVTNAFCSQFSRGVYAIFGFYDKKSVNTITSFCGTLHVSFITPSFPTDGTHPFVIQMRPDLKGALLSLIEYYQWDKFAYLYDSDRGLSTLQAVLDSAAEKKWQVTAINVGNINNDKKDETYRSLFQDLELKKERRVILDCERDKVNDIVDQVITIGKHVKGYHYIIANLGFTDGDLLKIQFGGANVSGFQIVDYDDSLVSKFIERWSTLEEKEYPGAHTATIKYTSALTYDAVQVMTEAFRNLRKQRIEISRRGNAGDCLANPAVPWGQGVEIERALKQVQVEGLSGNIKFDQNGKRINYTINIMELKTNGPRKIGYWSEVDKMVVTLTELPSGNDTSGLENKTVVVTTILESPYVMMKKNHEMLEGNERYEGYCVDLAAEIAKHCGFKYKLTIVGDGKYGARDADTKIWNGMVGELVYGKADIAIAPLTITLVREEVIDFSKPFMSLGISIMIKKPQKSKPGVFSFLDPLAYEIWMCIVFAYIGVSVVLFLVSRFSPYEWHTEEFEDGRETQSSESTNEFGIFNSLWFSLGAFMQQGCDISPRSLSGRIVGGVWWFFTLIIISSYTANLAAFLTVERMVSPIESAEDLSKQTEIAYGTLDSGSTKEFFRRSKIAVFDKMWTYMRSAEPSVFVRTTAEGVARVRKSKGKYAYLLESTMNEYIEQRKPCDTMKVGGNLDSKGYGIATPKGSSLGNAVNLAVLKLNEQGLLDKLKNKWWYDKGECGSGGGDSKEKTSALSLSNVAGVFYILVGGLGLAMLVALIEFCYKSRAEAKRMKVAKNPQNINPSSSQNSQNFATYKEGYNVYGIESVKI
Chain of UniProt P19490 (whole entry, looked up): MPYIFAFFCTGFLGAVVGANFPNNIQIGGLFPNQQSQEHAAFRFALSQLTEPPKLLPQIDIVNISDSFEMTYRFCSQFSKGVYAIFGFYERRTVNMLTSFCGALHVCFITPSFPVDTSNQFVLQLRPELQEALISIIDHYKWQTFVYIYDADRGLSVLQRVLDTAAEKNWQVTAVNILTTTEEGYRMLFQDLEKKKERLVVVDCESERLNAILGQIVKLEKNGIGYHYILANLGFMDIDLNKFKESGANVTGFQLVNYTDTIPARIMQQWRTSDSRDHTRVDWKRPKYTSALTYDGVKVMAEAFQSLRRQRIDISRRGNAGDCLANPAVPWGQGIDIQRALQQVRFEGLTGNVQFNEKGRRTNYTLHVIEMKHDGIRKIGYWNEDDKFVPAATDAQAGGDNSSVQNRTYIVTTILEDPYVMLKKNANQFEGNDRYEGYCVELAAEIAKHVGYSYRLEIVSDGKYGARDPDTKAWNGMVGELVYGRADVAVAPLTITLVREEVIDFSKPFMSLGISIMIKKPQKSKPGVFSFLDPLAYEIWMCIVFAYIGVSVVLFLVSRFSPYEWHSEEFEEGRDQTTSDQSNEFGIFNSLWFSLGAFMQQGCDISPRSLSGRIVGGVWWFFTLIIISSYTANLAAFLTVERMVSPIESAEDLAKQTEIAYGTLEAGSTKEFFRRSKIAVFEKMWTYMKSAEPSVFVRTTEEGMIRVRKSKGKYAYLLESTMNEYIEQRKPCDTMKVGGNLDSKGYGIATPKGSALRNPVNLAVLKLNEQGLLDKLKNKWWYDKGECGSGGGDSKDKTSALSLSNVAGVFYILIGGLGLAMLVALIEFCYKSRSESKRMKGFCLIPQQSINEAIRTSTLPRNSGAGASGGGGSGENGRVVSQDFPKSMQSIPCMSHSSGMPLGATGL
Chain of UniProt Q7Z5P4 (whole entry, looked up): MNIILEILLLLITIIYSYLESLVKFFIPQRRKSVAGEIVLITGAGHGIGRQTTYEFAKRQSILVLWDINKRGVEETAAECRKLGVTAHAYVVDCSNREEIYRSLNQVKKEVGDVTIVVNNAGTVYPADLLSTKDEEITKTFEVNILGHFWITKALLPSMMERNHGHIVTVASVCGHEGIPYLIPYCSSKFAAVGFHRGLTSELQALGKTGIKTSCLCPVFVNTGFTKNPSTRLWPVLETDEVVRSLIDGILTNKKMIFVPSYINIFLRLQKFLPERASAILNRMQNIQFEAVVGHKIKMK
Chain of UniProt P68104 (whole entry, looked up): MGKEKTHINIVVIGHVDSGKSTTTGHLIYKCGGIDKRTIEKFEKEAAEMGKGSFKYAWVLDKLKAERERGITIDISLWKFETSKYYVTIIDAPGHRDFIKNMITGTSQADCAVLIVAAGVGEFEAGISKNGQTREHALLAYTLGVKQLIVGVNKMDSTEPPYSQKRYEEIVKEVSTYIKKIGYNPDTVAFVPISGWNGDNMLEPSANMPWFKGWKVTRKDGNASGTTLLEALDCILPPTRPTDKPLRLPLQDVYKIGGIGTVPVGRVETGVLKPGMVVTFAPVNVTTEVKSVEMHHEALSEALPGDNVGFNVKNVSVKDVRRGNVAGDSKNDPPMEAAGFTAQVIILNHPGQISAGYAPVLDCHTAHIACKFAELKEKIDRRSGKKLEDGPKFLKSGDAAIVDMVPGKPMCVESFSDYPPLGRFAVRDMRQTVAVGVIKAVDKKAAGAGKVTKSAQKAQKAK
Chain of UniProt Q13148 (whole entry, looked up): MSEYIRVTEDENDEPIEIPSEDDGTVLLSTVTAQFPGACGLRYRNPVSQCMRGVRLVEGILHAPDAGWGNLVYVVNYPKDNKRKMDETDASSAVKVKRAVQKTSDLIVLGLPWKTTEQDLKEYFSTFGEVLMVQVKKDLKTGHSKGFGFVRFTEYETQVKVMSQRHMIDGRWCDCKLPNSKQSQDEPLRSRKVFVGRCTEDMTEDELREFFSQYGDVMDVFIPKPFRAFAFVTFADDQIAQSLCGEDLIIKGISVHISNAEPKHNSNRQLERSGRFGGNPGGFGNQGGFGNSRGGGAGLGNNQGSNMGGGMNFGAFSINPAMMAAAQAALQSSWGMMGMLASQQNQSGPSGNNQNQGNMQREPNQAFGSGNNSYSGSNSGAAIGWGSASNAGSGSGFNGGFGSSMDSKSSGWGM
Chain of UniProt Q9HB29 (whole entry, looked up): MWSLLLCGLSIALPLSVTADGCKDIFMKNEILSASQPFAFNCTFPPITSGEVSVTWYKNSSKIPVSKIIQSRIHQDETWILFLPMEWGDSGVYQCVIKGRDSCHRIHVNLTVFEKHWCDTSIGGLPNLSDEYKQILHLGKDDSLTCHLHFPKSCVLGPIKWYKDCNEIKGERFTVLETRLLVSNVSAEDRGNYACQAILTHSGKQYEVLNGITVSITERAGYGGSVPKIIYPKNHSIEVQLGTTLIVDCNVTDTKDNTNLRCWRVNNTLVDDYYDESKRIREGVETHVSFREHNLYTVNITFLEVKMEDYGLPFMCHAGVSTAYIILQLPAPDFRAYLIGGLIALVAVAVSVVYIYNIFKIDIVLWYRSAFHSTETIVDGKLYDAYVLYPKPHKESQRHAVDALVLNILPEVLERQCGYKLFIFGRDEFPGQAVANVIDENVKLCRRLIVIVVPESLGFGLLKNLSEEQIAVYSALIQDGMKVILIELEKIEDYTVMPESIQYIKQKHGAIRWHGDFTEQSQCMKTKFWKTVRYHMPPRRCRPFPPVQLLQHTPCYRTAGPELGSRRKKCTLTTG
Chain of UniProt Q8NJN3 (whole entry, looked up): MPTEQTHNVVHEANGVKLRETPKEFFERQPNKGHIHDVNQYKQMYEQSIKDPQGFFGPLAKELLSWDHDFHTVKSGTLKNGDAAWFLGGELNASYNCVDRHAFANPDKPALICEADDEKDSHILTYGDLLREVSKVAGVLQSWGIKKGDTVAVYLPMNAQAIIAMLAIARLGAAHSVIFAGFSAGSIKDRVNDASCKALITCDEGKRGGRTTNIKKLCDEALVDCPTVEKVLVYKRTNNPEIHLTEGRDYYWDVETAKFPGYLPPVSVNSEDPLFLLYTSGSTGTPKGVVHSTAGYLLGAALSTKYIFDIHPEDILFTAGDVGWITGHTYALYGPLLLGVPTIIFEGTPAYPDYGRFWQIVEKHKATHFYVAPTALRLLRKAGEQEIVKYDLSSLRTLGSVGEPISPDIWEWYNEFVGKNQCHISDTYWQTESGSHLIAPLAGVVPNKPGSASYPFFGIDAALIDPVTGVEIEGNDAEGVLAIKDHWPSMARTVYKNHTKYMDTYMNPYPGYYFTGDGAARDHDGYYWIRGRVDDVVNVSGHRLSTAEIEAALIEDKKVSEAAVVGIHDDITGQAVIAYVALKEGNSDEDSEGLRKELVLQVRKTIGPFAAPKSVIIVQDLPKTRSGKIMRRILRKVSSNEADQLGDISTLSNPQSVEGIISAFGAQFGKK

Compound = CC(C=CC=C(C)C=CC1=C(C)CCCC1(C)C)=CC=O; target or system = Rhodopsin (RHO, Homo sapiens, UniProt P08100, P23H); assay = immunostaining, item: opsin; system = COS-7 transfected; conditions = 10.00 µM, unit not given; how to read = relative to: surface over total stained cells; measurement = plasma membrane localization; result = 0.42
Compound = Fc1ccc(Nc2nc(NC3CCCCC3)c3ccccc3n2)cc1F; target or system = ADRB2 (Homo sapiens, UniProt P07550, V152G); assay = β-arrestin2 recruitment, antagonist, BRET; conditions = mutant V152G; how to read = relative to: isoprenaline maximal response; measurement = maximal inhibition; result = 6.6%
Compound = COc1ccc2cc(C(C)C(=O)NC3CCN(Cc4ccccc4)CC3)ccc2c1 (stereo not drawn); target or system = Sodium- and chloride-dependent glycine transporter 2; assay = MS binding competition; conditions = 10 µM; measurement = remaining specific binding; result = 94.2 ± 3.7%
Compound = COC(=O)Cc1cc2c(cc1C(=O)c1ccccc1Cl)OCO2; target or system = Gria1/Gria2; assay = glutamate-evoked current, whole-cell patch clamp; system = HEK-293T; conditions = concentration not given, weighted tau, 500 ms pulse, together with: glutamate; measurement = desensitization time constant; result = 4.5 ± 0.3 ms
Compound = CC1=CC(C)=[N+]2C1=C(CCCCN1CCC(O)CC1)c1c(C)cc(C)n1[B-]2(F)F; target or system = Sodium- and chloride-dependent glycine transporter 2; assay = MS binding competition; conditions = 10 µM; measurement = remaining specific binding; result = 83.8 ± 1.8%
Compound = COC(=O)Cc1cc2c(cc1C(=O)c1ccccc1)OCO2; target or system = Gria1/Gria2; assay = glutamate-evoked current, whole-cell patch clamp; system = HEK-293T; conditions = concentration not given, glutamate alone after washout, together with: glutamate; measurement = current amplitude after recovery; result = 516 ± 36 pA
Compound = COc1ccc(CN2CC3CCCCN3C2=O)cc1 (stereo not drawn); target or system = Uridine nucleoside ribohydrolase (Trichomonas vaginalis, UniProt A2FTT0); assay = 19F NMR; conditions = 50 µM, together with: 0.01% Triton X-100; measurement = inhibition; result = 71.1%
Compound = OC[C@@H]1[C@@H](O)[C@H](O)[C@@H](O)c2nccn21; target or system = bglA (Thermotoga maritima, UniProt Q08638); assay = ITC; conditions = pH 6.8, 25 °C; measurement = ΔH; result = -12.6 ± 0.287 kcal/mol
Compound = CC1CCC2C(C)(C)C(O)CCC2(C)C12Cc1c(O)cc(CO)c(C=O)c1O2 (stereo not drawn); target or system = StaI Stachybotrys chartarum; assay = substrate; conditions = 30 min, pH 7.0, 45 °C; measurement = Km; result = 428 µM
Compound = Cc1ccc2c(c1)C1CC(C)(N2)c2c(C)nc3ccc(C)cc3c21 (stereo not drawn); target or system = Glideosome-associated protein 50 (GAP50, Plasmodium falciparum, UniProt Q8I2X3); assay = binding, surface plasmon resonance; conditions = 1:1 binding model; measurement = koff; result = 0.0127 s⁻¹
Compound = CN(C)CCCSC(=S)N1CCN(C(=O)/C=C/c2coc3ccccc3c2=O)CC1; target or system = Nucleoprotein (N, Tomato spotted wilt virus, UniProt P25999); assay = binding, microscale thermophoresis; conditions = 3.906 µM; how to read = dose series; measurement = normalised MST response; result = 0.0404
Compound = O=C(O)Cc1cc2c(cc1C(=O)c1ccccc1Cl)OCO2; target or system = Gria1/Gria2; assay = glutamate-evoked current, whole-cell patch clamp; system = HEK-293T; conditions = concentration not given, pH 7.4, holding potential -60 mV, together with: 10 mM glutamate; measurement = current amplitude; result = 82 ± 6 pA
Compound = CN(Cc1cc(C2CC2)on1)C(=O)c1cccc(-c2ccc3c(c2)CCO3)c1; target or system = Acetyl-coenzyme A synthetase 2 (ACS2, Candida albicans, UniProt Q8NJN3); assay = enzyme activity, inhibitor, coupled pyrophosphate; conditions = 25 µM; how to read = higher is more activity; measurement = reaction rate; result = 0.00297 a.u.
Compound = COC[C@@H]([C@H](O)[C@H](O)C(=O)NCC[C@H](C)c1nc(/C=C/C[C@@H]2O[C@]3(C[C@@H](O)[C@@H]2C)O[C@H]([C@H](C[C@H](O)[C@H](C)[C@H](O)[C@H](C)/C=C(C)/C(C)=C/C=C/C(C)=C\C#N)OC)[C@H](OP(=O)(O)OP(=O)(O)O)C3(C)C)co1)N(C)C; target or system = recombinant CalL-strep; assay = substrate; measurement = Km; result = 26.7 ± 8.93 µM
Compound = NC(=NO)NCCC[C@H](N)C(=O)O; target or system = Arginase (Schistosoma mansoni, UniProt Q6WVP6); assay = isothermal titration calorimetry; measurement = stoichiometry first site; result = 0.77 ± 0.03
Compound = Clc1ccc(Cn2cc(-c3ccccc3)[n+]3c2CCC3)cc1Cl.[Cl-]; target or system = Trypanosoma cruzi; assay = reporter mRNA translation, inhibitor, item: Renilla luciferase mRNA; system = cell-free extract; conditions = concentration not given, test 1; how to read = relative to: positive over negative control; measurement = translation activity; result = 128% and 109%
Compound = O=C1c2sc(-c3ccc(N4CCC(CO)CC4)nc3F)nc2CCN1c1cccnc1; target or system = TAR DNA-binding protein 43, aggregated (TARDBP, Homo sapiens, UniProt Q13148); assay = radioligand binding; system = human, FTLD-TDP type B extract; conditions = together with: radioligand 52.06 nM; measurement = specific binding; result = 8.79 nM and 6.18 nM
Compound = COc1cc2nc(Cl)nc(Nc3ccc(Oc4ccccc4)cc3)c2cc1OC; target or system = SMUG1 (Homo sapiens, UniProt Q53HV7); assay = enzyme activity, activator, fluorescence; conditions = 2 µM; how to read = relative to: control; measurement = activity; result = 800 ± 400%
Compound = N#Cc1cccc(/C=C/C(=O)c2ccc(O)cc2)c1; target or system = P4HB (Homo sapiens, UniProt P07237); assay = thermal stability, DSF; conditions = 100 µM; measurement = ΔTm; result = 2.54 °C
Compound = COC(=O)[C@@]1(C)C=C(C(=O)Nc2cccc(C(=O)Nc3ccc(Nc4nccc(-c5cccnc5)n4)c(C)c3)c2)C(=O)CC1; target or system = Mitogen-activated protein kinase 8, docking groove (MAPK8, Homo sapiens, UniProt P45983); assay = peptide binding, inhibitor, fluorescence polarization; conditions = 25 µM, together with: JIP1 peptide probe; measurement = normalized fluorescence polarization; result = 0.871
Compound = Cc1cc(C)cc(COc2cc3c(cc2OCc2cc(C)cc(C)c2)C2CC(O)(Cc4cn(CCOCCOCCNC(=O)CCCCC5SCC6NC(=O)NC65)nn4)CC(C)N2CC3)c1 (stereo not drawn); target or system = ATPase GET3 (GET3, Homo sapiens, UniProt O43681); assay = biotinylated probe pull-down; conditions = 10 µM probe; how to read = relative to: heavy over light; measurement = SILAC ratio; result = 2.7
Compound = COc1ccccc1/C=C/CN1CCCC(CCC(=O)NCc2ccccc2F)C1 (stereo not drawn); target or system = Trypanosoma cruzi; assay = reporter mRNA translation, inhibitor, item: Renilla luciferase mRNA; system = cell-free extract; conditions = concentration not given, test 2; how to read = relative to: positive over negative control; measurement = translation activity; result = 82.3% and 118%
Compound = COCCOc1cc2ncnc(Nc3cccc(-c4cn(CC(=O)Nc5ccc(S(N)(=O)=O)cc5)nn4)c3)c2cc1OCCOC; target or system = CA12 (Homo sapiens, UniProt O43570); how to read = relative to: Ki hCA II over Ki hCA XII; measurement = selectivity ratio; result = 1.49
Compound = CC(C)[C@@H]1NC(=O)[C@H](Cc2ccccc2)NC(=O)CSC[C@@H](C(N)=O)NC(=O)[C@H](CCC(=O)O)NC(=O)[C@H](CO)NC(=O)[C@H](Cc2c[nH]c3cccc(Cl)c23)NC(=O)[C@H](C2CCCCC2)NC(=O)[C@H](C(C)C)NC(=O)[C@H](Cc2ccc(O)cc2)NC(=O)[C@H](CC(=O)O)NC(=O)[C@H](Cc2c[nH]c3ccccc23)NC(=O)[C@H](Cc2ccc(N)nc2)NC(=O)[C@H](Cc2c[nH]c3ccc(Cl)cc23)NC(=O)[C@H](CCC(=O)O)NC1=O; target or system = Interleukin-1 receptor-like 2 (IL1RL2, Homo sapiens, UniProt Q9HB29); assay = reporter gene (SEAP), inhibitor, HEK-Blue IL-36R reporter; system = HEK-Blue IL-36R cells; conditions = 0.015 µM, 6 h, together with: IL-36γ 0.03 ng/mL; measurement = remaining activity; result = 82.3%
Compound = N#CN1CC[C@H](C(=O)Nc2nc3c(s2)CN(C(=O)Cn2cc(CNC(=O)CCCC[C@@H]4SC[C@@H]5NC(=O)N[C@@H]54)nn2)CC3)C1; target or system = EEF1A1 (Homo sapiens, UniProt P68104); assay = probe binding, affinity probe, neutravidin pull-down LC-MS/MS; system = HEK293T, cell lysate; conditions = 5 µM, 1 h, single replicate, unit not given; how to read = higher = more pulled down; measurement = iBAQ abundance; result = 1.09e+09 and 5.03e+08 and 3.11e+08
Compound = CCCCCCCCCCCCCCCc1cccc(OCC)c1C(=O)Nc1ccc(Cl)c(C(F)(F)F)c1; target or system = KAT5 (Homo sapiens, UniProt Q92993); assay = SPR; conditions = 1.85 µM; how to read = higher = more binding; measurement = SPR binding response; result = 0.163 RU
Compound = CC1(C)C[C@@H](Nc2cccc(-c3sc(C(=O)O)c(OCC(=O)O)c3Cl)c2)CCN1S(=O)(=O)Cc1cccc(NC(=O)CN2CCC(c3ccc4c(c3)oc(=O)n4C3CCC(=O)NC3=O)CC2)c1 (stereo partly drawn); target or system = PTPN2 (Homo sapiens, UniProt P17706, H30A/P33A/R35A); assay = degrader, bio-layer interferometry; conditions = 15.6 nM; how to read = higher = more binding; measurement = BLI binding response; result = 0.0555 a.u.
Compound = C[Si](C)(C)C[C@H](CN)CC(=O)O; target or system = alpha1 adrenergic receptor, rat; assay = binding, radioligand binding; conditions = 250 µM, together with: [3H]prazosin; measurement = inhibition; result = -3%
Compound = COC(=O)Cc1cc2c(cc1C(=O)c1ccccc1I)OCO2; target or system = Gria1/Gria2; assay = glutamate-evoked current, whole-cell patch clamp; system = HEK-293T; conditions = concentration not given, weighted tau, 500 ms pulse, together with: glutamate; measurement = desensitization time constant; result = 5 ± 0.3 ms
Compound = Cc1cnc2nc1Nc1cccc(c1)COC/C=C/COCc1cc(ccc1OCCN1CCOCC1)N2; target or system = PIP5K1C (Homo sapiens, UniProt O60331); assay = cell-free assay; conditions = 0.1 µM; measurement = remaining signal; result = 100%
Compound = CC(=O)c1cnc(NS(=O)(=O)c2ccc(Cl)c(Cl)c2)nc1; target or system = 17-beta-hydroxysteroid dehydrogenase 13 (Homo sapiens, UniProt Q7Z5P4); assay = enzyme activity; system = human hepatocytes, HSD17B13 siRNA, culture medium; conditions = 7 h; how to read = relative to: scramble siRNA control; measurement = oxidized product ratio; result = 0.013 and 0.0118 and 0.0184 and 0.00801
Compound = CN(Cc1ccc(/C=C/C(=O)NO)cc1)CC12CC3CC(CC(C3)C1)C2; target or system = human D3 receptor; assay = antagonist radioligand binding; conditions = 0.05 µM; measurement = inhibition; result = -8%
Compound = CSCC[C@H](NC(=O)[C@H](CCC(N)=O)NC(=O)[C@H](CCCCN)NC(=O)[C@H](CCCNC(=N)N)NC(=O)[C@H](Cc1ccc(O)cc1)NC(=O)[C@H](CCCNC(=N)N)NC(=O)[C@H](CO)NC(=O)[C@H](Cc1ccc(O)cc1)NC(=O)[C@H](CO)NC(=O)[C@H](CC(=O)O)NC(=O)[C@@H](NC(=O)[C@@H](N)Cc1ccccc1)[C@@H](C)O)C(=O)N[C@@H](C)C(=O)N[C@H](C(=O)N[C@@H](CCCCN)C(=O)N[C@@H](CCCCN)C(=O)N[C@@H](Cc1ccc(O)cc1)C(=O)N[C@@H](CC(C)C)C(=O)N[C@@H](C)C(=O)N[C@@H](C)C(=O)N[C@H](C(=O)N[C@@H](CC(C)C)C(=O)NCC(=O)N[C@@H](CCCCN)C(=O)N[C@@H](CCCNC(=N)N)C(=O)N[C@@H](Cc1ccc(O)cc1)C(=O)N[C@@H](CCCCN)C(=O)N[C@@H](CCC(N)=O)C(=O)N[C@@H](CCCCn1cc(C[C@H](NC(=O)CNC(=O)[C@H](CO)NC(=O)[C@H](CCCNC(=N)N)NC(=O)[C@H](CO)NC(=O)[C@H](CC(C)C)NC(=O)[C@H](CC(C)C)NC(=O)CNC(=O)[C@H](C)NC(=O)[C@H](CC(C)C)NC(=O)[C@H](CCCNC(=N)N)NC(=O)[C@H](Cc2c[nH]cn2)NC(=O)[C@@H](NC(=O)[C@@H](N)C(C)C)[C@@H](C)O)C(=O)N[C@H](C(=O)N[C@H](C(=O)N[C@@H](CCCCN)C(=O)N[C@@H](CC(N)=O)C(=O)N[C@@H](CC(N)=O)C(=O)N[C@@H](Cc2ccccc2)C(=O)N[C@H](C(=O)N2CCC[C@H]2C(=O)N[C@H](C(=O)N[C@@H](CC(N)=O)C(=O)N[C@H](C(=O)NCC(=O)N[C@@H](CO)C(=O)N[C@@H](CCCCN)C(=O)N[C@@H](C)C(=O)N[C@@H](Cc2ccccc2)C(N)=O)C(C)C)[C@@H](C)O)C(C)C)C(C)C)C(C)C)nn1)C(=O)N[C@H](C(=O)N[C@@H](CCCCN)C(=O)N[C@@H](CC(N)=O)C(=O)N[C@@H](CCCCN)C(N)=O)C(C)C)C(C)C)C(C)C; target or system = PACAP-responsive receptors, rat; assay = cAMP accumulation, antagonist; system = rat spinal cord; conditions = 15 min, together with: PACAP-38; measurement = A2; result = 174 nM

For quick reference, copied from above:
Compound = CC1=CC(C)=[N+]2C1=C(CCCCN1CCC(O)CC1)c1c(C)cc(C)n1[B-]2(F)F; target or system = Sodium- and chloride-dependent glycine transporter 2; assay = MS binding competition; conditions = 10 µM; measurement = remaining specific binding; result = 83.8 ± 1.8%
Compound = COC(=O)Cc1cc2c(cc1C(=O)c1ccccc1)OCO2; target or system = Gria1/Gria2; assay = glutamate-evoked current, whole-cell patch clamp; system = HEK-293T; conditions = concentration not given, glutamate alone after washout, together with: glutamate; measurement = current amplitude after recovery; result = 516 ± 36 pA
